Assay results from different studies.
Parts stem from different laboratories: compare values within a part only. Substitutions count along the parent as printed.

Study 1
Target: RNA binding protein fox-1 homolog 2, RRM domain, GST-SBP tag (RBFOX2, Homo sapiens, UniProt O43251-10, residues 100-194)
Method: RNA Bind-n-Seq
Molecule type: RNA
Sample: in vitro
Tested at: 365 nM
Notes: natural RNA segment, single round, ends assumed
Reference: no-protein control
Reading: higher = stronger binding
Quantity: RBNS enrichment (R)
All sequences stand within: GGGAGUUCUACAGUCCGACGAUC … UGGAAUUCUCGGGUGCCAA
Construct (chain): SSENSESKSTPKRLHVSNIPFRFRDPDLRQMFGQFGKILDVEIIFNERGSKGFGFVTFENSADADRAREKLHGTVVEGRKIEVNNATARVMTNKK
AAACUACUUUAGAGCCUCUUUUUCUCCCAACUCAUAUUUUUGAUAGGAAAAACAGAAAACCCAUCCAGUUCUUCAGAAAUUGCUUUCUAGGCAUUAAUACUACUUUACUA: 0.684
AGCUCAUGGCCUCCUCAGAGGAAGACAUCAUUGACUUGAAAUAGAGUCUAUGCCCUAUUGGCCAUCCUUAGUUUUCUUACGCAAAUUUAUACUGUUCAAGCAGCUCCAAC: 0.287
UUGAAGCUUGCUCUCCCUAGAUGGGUGGUCUGCUCUCGGUCCUUCUCUGCUCUCUAUAAAAUGGUGCUGUGCGGGAGGGAGGGGGGAAGUUUUUCAAUAUAUGAACUUUU: 0.63
CUUGGCCUCCCUAGGCUAUAUCUGGGACUGGGGGGAUGACAUGCUCCCACUCUGGCUCCUUGUUCUCUGGCAAACCGUAGCGUGGCUGCCAGCAUCCUGUAGCGCGGAUA: 1.49
UAAGUAAAAUCAUUGUUCCAUUCUUAUACAUUUGAAUGUGAUGGUGACCUUUGAAACAAUUCCAGGGGCAUUCUCAAGUAUUUGAUACCUAGGGGUUUAGUAACUCAGAC: 0.289
GCCUGGUGUGCUCUGGGAUGUGCAAGGUGGAGCAGGCCUGUCAGUCAGCCUGCUGCUGCAUCUGUUCUCAGCUUCUUGGUUGGCUGGCUGAGUGGAGCACCCACCCAAAC: 0.538
UCAAAGCCCAGCUUAGUGAGGACUUGGGUCAACUUCAGUAAGCUUCCUCUGAAGCAACUGAAGGCCGAGCCUUUAGAGCAACCAUUGUCAACCUUUGUGGGUCGCCUAAG: 0.242
CAGACUUUCUAAGUUAAAUUUUAAAAAUUUUGAUUGUUUGCCAUAUUGGGUGGGUUUACUCUUAGAAUCGCAUGCUGUAGAAAUGCUCAAAAGUGCAUAUGGGACUCAGU: 4.09
CAGAGGCGAGCAGCCAAGAUGCCCAGGAGCAUGGAAGAAGAGUGACAAGGGCGUCCCCAAGAGACACCCUCACCGUACCAAAGAGCUGAGCUGCUUCUGGGUCUCACGGA: 0.509
UCAUAUUGAAUGUAUUAACAGAUAGCAGUGCAAAAGCAUUCUUCCCAAGAGAAGAGUGUACCAUGCACGUCUGCACCCCAGGCCCUUCCUGAGUCUUCAGGUGCACACAG: 0.378
ACAAGAGCGAAACUCUGUCUCAAAAUAAAUAAAAAAUAAAAGACAGAAAGCAAGGGGUGCCUAAAUCUAGACUUGGGGUCCACACCGGGCAGCGGGGUUGCAACCCAGCA: 2.35
UGGUUGUAUCUAGAUCUUUGCUCUGUGUUUCAGUUGUGCCUUACCCUCUGUAAGAUACUGAUUCUUCCUGGGGCCAGUAUUACCUUGUAUGCAAAUAUUACAUAUGAUGG: 0.18

Study 2
Target: Prothrombin, mature alpha-thrombin (F2, Homo sapiens, UniProt P00734)
Method: aptamer microarray, sandwich
Molecule type: DNA with 2'F-ANA
Sample: in vitro
Tested at: 200 nM
Notes: whole 15-mer aptamer, many near background
Added: Cy3 exosite-II aptamer, 400 nM
Reading: higher = stronger binding
Quantity: mean fluorescence intensity
Oligonucleotide: GGTTGGTGTGGTTGG
2'F-ANA at 2 4 7 8 10 11 12 13 15: 142 a.u.
2'F-ANA at 1 2 3 4 5 7 9 12 13: 71.8 a.u.
2'F-ANA at 2 3 7 8 10 11 12 14 15: 240 a.u.
2'F-ANA at 2 3 4 8 11: 702 a.u.
2'F-ANA at 1 4 7 8 9 11 12 14 15: 62.7 a.u.
2'F-ANA at 3 4 6 7 9 13 14 15: 226 a.u.
2'F-ANA at 1 2 3 4 5 8 9 12 13 15: 76.7 a.u.
2'F-ANA at 2 5 8 12: 154 a.u.
2'F-ANA at 2 7 11 15: 461 a.u.
2'F-ANA at 4 6 10 14: 56.4 a.u.
2'F-ANA at 2 4 8 9 10 12 13: 100 a.u.
2'F-ANA at 4 5 9 10 12 13 14 15: 45.6 a.u.
2'F-ANA at 2 4 7 11 12 14: 152 a.u.
2'F-ANA at 1 8 9 12 15: 404 a.u.
2'F-ANA at 4 8 10 15: 81 a.u.
2'F-ANA at 4 5 6 7 9 10 13: 48.5 a.u.
2'F-ANA at 1 3 4 5 6 7 9 12: 130 a.u.
2'F-ANA at 1 3 5 6 7 10 11 12 13 15: 50.9 a.u.
2'F-ANA at 1 5 11 15: 61.5 a.u.
2'F-ANA at 5 6 7 13 14 15: 120 a.u.
2'F-ANA at 1 4 7 8 11 12 13 14 15: 63.7 a.u.

Study 3
Target: ABI1, truncated, D143A, DHFR fusion (Arabidopsis thaliana)
Method: DHFR PCA, deep sequencing
Sample: yeast
Notes: methotrexate growth selection, single substitutions
Added: (+)-ABA 0.39 µM
Reference: wild-type fitted maximum
Reading: higher = stronger binding
Quantity: relative binding score
Parent: PYL1, truncated, DHFR fusion (Arabidopsis thaliana); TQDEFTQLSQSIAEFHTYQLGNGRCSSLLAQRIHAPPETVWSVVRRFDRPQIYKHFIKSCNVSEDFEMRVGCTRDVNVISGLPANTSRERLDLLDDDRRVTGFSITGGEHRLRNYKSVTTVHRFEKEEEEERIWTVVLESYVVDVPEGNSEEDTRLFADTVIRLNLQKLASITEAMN; partner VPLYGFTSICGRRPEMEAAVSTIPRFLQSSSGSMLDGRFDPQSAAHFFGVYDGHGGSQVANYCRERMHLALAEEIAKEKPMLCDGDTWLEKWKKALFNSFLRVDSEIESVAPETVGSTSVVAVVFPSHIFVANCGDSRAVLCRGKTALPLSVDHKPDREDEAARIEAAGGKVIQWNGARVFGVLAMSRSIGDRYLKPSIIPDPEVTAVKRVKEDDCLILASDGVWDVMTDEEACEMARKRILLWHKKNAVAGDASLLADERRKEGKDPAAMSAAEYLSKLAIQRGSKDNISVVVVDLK
A30K: 37.2%
T160D: -3.01%
L156F: -1.14%
K168Y: 13.8%
L138M: 10.6%
S9V: 30.1%
L29H: 32%
H34D: 46.8%
N61S: 61.9%
G71R: -3.02%
S63F: 2.07%
L169F: -14.5%
T17E: 4.24%

Study 4
Target: CCNE1, cyclin fold, Cln2 fusion (human)
Method: yeast growth competition, sequencing
Sample: yeast
Notes: strong parent motif
Reference: not given
Reading: higher = stronger binding
Quantity: normalised enrichment score
Parent: E2F2 docking peptide (human); LPAKRKLDLEGIG
E10A: 0.705
L1A: 0.745
K4A: 1.16
R5K: 0.594
I12A: 1.27
R5A: 0.611
G11A: 0.0693
R5A L7A: 0.0822
R5K L9F: 3.37

Study 5
Target: PABPC1L2, full length, GST fusion (mouse, UniProt A0ABA7IW68)
Method: RNAcompete
Molecule type: RNA
Sample: in vitro
Tested at: 20 nM
Notes: 7-mer, probes averaged, single round
Reference: mean of 7-mers
Reading: higher = stronger binding
Quantity: 7-mer Z-score
Target sequence (chain): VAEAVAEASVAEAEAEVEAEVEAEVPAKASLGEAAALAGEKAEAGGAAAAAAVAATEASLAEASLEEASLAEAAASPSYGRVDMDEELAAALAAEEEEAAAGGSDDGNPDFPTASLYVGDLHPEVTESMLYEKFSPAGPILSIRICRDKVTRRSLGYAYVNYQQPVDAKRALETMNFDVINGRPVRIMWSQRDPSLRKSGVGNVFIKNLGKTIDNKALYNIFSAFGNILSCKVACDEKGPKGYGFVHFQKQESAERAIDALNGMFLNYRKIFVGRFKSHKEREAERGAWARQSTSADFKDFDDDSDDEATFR
UCCCUAC: -0.447
UGUAAAU: 0.445
ACUUCGG: -0.126
AGGUCAU: -0.0899
AACGUUA: -0.188
AAUCUUU: -0.0736
AAAAGAA: 7.26
UAAAAUC: 1.96
AUUUAGC: 0.273
GAUUACG: -0.126
UUCCUAA: -0.24
GAGGUGG: 0.207
GCUAUCC: -0.325
AAACUCC: 0.427
UUACUCU: -0.425
UUUACGU: -0.335
CCCGACA: -0.22
UGAGGGG: 0.24
UACUGGU: -0.144
UCGGGCG: -0.0264
GUCACAG: 0.115
AUUACUA: 0.017
GCCGUAA: -0.0591
UAGUUGC: -0.32
GGCUUCU: -0.273

Other studies, line by line
PhoQ, residues 284 288 289 292 302 303 SSTLLI  fold induction (PhoP, residues 12 14 15 18 19 NNFVT (Escherichia coli, UniProt P23836); Sort-seq, refers to: YFP reporter; E. coli; PhoQ-PhoP variant library, added: 10 µM Mg2+; reference: high Mg2+ state, higher = stronger signaling): 4.25

A few entries again (study 5):
UUACUCU: -0.425
UACUGGU: -0.144
UUCCUAA: -0.24
AGGUCAU: -0.0899
UGUAAAU: 0.445
UUUACGU: -0.335
UAAAAUC: 1.96
GCCGUAA: -0.0591
AAAAGAA: 7.26
UCCCUAC: -0.447
UCGGGCG: -0.0264
GAUUACG: -0.126
